Published values gathered from unrelated publications.
Protocols differ between the studies behind these lines. Several values in a cell are separate wells, animals, samples, runs or records. ± gives the spread as reported.

SMILES	assay	test system	setting	scale	quantity	result
CC(C)[C@H](C(=O)Nc1ccc(C(=O)NO)cc1)c1ccccc1	–	human, left ear	9 months after treatment	–	speech discrimination	0%
O=c1[nH]c(=O)n([C@@H]2O[C@H](CO)[C@@H](O)[C@@H]2F)cc1CCCCC[18F]	–	nude mice, RG2 tumour, wild-type RG2 tumour	2 h post injection	–	tumour uptake	0.1 ± 0.03 %ID/g
Cn1cc(Nc2nccc(-c3ccc4c(c3)CN(C3COC3)CC[C@H]4NC(=O)c3cn(C(C)(C)C)nn3)n2)cn1	measured: Endometrial Cancer Signaling	splenic B cells, Mus musculus	30 mg/kg, added: IgD activation	reference: vehicle, direction not given	pathway activation z-score	1
NC(=O)c1cnc2[nH]ccc2c1N[C@@H]1[C@@H]2CC3C[C@H]1C[C@@](O)(C3)C2	flow cytometry, measured: CD8+ effector memory T cells	Japanese healthy subjects, peripheral blood	oral, 100 mg twice daily, day 7	–	change from baseline	0.18%
O=C(OC(C(F)(F)F)C(F)(F)F)N1CCN(Cc2cccc(Oc3ccccc3)c2)CC1	PET blocking study	rhesus monkey, brain THA	0.3 mg/kg, compound pretreatment, added: [18F]T-401 tracer	–	k4	0.591 min⁻¹
CSCCNc1nc(SCCC(F)(F)F)nc2c1ncn2[C@@H]1O[C@H](COP(=O)(O)OP(=O)(O)C(Cl)(Cl)P(=O)(O)O)[C@@H](O)[C@H]1O	light transmittance aggregometry	human patients, platelet-rich plasma	dose not given, 2 h, added: ADP 20 µM	reference: patients	patients with IPA above 90%	0%
Oc1ccc(Br)cc1C=NCCN1CCOCC1	hydroxyl radical scavenging	–	120 µM	–	inhibition	29.9%
Cc1n[nH]c2ccc(-c3cc(OC[C@@H](N)Cc4ccccc4)cnc3-c3ccoc3)cc12	kinase binding, competitor, MIB/MS competition, measured: RIM8	Candida albicans cell lysate	100 nM	reference: DMSO	log2 fold change	-0.206
COc1ccc(F)cc1C(=O)NCc1ccc(-c2nn([C@@H](C)C(F)(F)F)c(N)c2C(N)=O)cc1	–	mouse OCI-Ly10 xenograft	50 mg/kg twice daily, 840 h, 35 days after withdrawal	–	tumour growth inhibition	93%
C[C@H](Oc1ccc(Br)cc1-c1ccon1)C(=O)O	muscle velocity recovery cycles	human, tibialis anterior muscle	200 mg once daily, multiple doses, 30 Hz train for 30 s	reference: placebo	latency change	-1.13%
C1=C/COCc2cc(ccc2OCCN2CCCC2)Nc2nccc(n2)-c2cccc(c2)COC/1	–	BALB/c mice rhEPO-induced polycythemia, bone marrow	120 mg/kg	–	CD71/Ter119 cells	12% and 13.9% and 12.3% and 12.8% and 10% and 13.8%
O=C(COc1ccc(Cl)cc1)NC12CC(c3nnc([C@H]4C[C@@H](OC(F)(F)F)C4)o3)(C1)C2	measured: CHAC1	PBMC ex vivo stimulated, human ALS patients	100 mg, D28 predose	reference: baseline	mRNA level change	-56.2%
COc1cc(/C=C/C(=O)CC(=O)/C=C/c2ccc(O)c(OC)c2)ccc1O	–	rat, high-fat diet hyperlipaemia	oral, 200 mg/kg daily, 4 weeks	–	relative epididymal fat weight	47.5 ± 7.2 mg/g body weight
CCN1CCN(Cc2ccc(Nc3ncc(F)c(-c4cc(F)c5nc6n(c5c4)[C@H](C)CCC6)n3)nc2)CC1	–	human advanced solid tumours	200 mg, phase Ia monotherapy RECIST 1.1	–	partial response	0%
CCCOc1ccc(-c2ccc(C#N)cc2)cc1	proteomics	rat placenta	5 µg/mL, high dose	reference: control	number of downregulated proteins	213
N#Cc1ccc2c(-c3ccncc3)c(-c3ccc(F)cc3)nn2c1	kinase binding, competitor, MIB/MS competition, measured: CMK2	Candida albicans cell lysate	1 µM	reference: DMSO	log2 fold change	-0.0537
C[C@H](NC(=O)c1c(C(F)F)nn(C)c1Oc1cccc(C(F)(F)F)c1)c1ccc(C(=O)O)cc1	irRECIST best overall response	patients with advanced tumours	250 mg	–	patients with stable disease	25%
O=C(O)CNC(=O)Cc1ccccc1	–	ventricular cardiomyocytes, C57BL/6 mouse	dose not given, 0.304 s	–	sarcomere length	1.71 µm

SMILES	assay	test system	setting	scale	quantity	result
COc1cc2cc(-c3ccc(CC(=O)Nc4cc(C(C)(C)C(F)(F)F)no4)cn3)cnc2cc1OC	RECIST v1.1	human RET-altered solid tumours	12 75 mg tablets, phase I	–	best overall response PR	17%
C[C@@H](NC(=O)N1C(=O)[C@H](Cc2ccnc(N)c2)[C@H]1C(=O)O)C1CCCCC1	–	human	iv infusion, 0.6 mg/kg/h, 24 h, unit not given	reference: baseline	PT AUEC	133
CCN(Cc1nc2c(N)nc3cc(-c4cc[nH]n4)ccc3c2[nH]1)C(C)=O	immunohistochemistry, measured: NK cells	patients with advanced solid tumours, non-injected tumour lesions	dose not given, monotherapy	–	patients with increased cells	56%
C[C@@H]1COCCN1c1cc([C@]2(O)C[C@H]3CC[C@@H](C2)O3)c2cnn(-c3cc[nH]n3)c2n1	–	mice, Granta-519 xenograft	30 mg/kg once daily for 3 days, day 14	–	tumour growth inhibition	81 ± 1.4%
COc1cc(N2CCC(N3CCN(C)CC3)CC2)ccc1Nc1ncc(Cl)c(Nc2ccccc2P(C)(C)=O)n1	–	nude mice, NCI-H3122 xenograft	intraperitoneal, 10 mg/kg every other day, day 9	–	tumour volume	109 mm3 and 209 mm3 and 242 mm3 and 216 mm3 and 102 mm3
Cl.O=C(c1cc(Cc2n[nH]c(=O)c3ccccc23)ccc1F)N1CC(CNC2CC2)C1	–	BALB/c nude mouse, CAPAN-1 xenograft	oral, 100 mg/kg once daily, 28 days	–	tumour growth inhibition	82.5%
NCC(=O)Nc1cncc(-c2nn3c(=O)cc(N4CCNCC4)nc3s2)c1	ADP-induced platelet aggregation, light transmission aggregometry	human stable CAD patients on aspirin, platelets ex vivo	0.05 mg/kg, 15 min post dose, added: 20 µM ADP	reference: placebo difference	inhibition of platelet aggregation	69.7%
COc1ccccc1[C@H](Cn1c(=O)n(C(C)(C)C(=O)O)c(=O)c2c(C)c(-c3ncco3)sc21)OC1CCOCC1	[1-13C]acetate infusion, isotopomer analysis	overweight or obese healthy men, plasma VLDL-TG palmitate	oral, 50 mg single dose, 7 h post-dose, added: oral fructose	–	fractional hepatic DNL	8.34 % new palmitate
N=C(N)NCCC[C@@H](NC(=O)CCOCCOCCNC(=O)[C@H](CCCCNC(=O)CC[C@H](NC(=O)c1ccc(NCc2cnc3nc(N)[nH]c(=O)c3n2)cc1)C(=O)O)NC(=O)CO/N=C/[C@H](F)[C@@H](O)[C@H](O)[C@H](O)CO)C(=O)NCC(=O)N[C@H](CC(=O)O)C(N)=O [fluorine-18 labelled]	–	female nude mice, MDA-MB-231 xenograft, tumour	2.5 h	–	tumour washout	37%
c1ccc(-c2n[nH]cc2-c2ccnc3ccccc23)nc1	kinase binding, competitor, MIB/MS competition, measured: RIO2	Candida albicans cell lysate	10 µM	reference: DMSO	log2 fold change	0.397
CCc1c(C)nc(-c2ccc(Cl)s2)nc1Nc1ccc(CC(=O)O)cc1	–	mice, chronic ethanol plus binge	intraperitoneal, 0.3 mg/kg daily, ethanol diet 4 weeks, dosed last two	reference: vehicle	serum AST	decreased
CC(C)(C=C(C#N)C(=O)N1CCC[C@H]1Cn1nc(-c2ccc(Oc3ccccc3)cc2F)c2c(N)ncnc21)N1CCOCC1	–	–	10-fold dilution, LC-MS, added: β-mercaptoethanol	–	dissociation half-life	2.53 ± 0.18 min
C[C@H]1C[C@H]2CSC(N)=N[C@@]2(c2nc(NC(=O)c3ccc(OC(F)F)cn3)cs2)CO1	measured: Aβx-40	healthy adults, plasma	540 mg single dose, 48 h post-dose	reference: placebo	percent change from baseline	-72.9%
C[C@H]1O[C@@H](O[C@H]2CC[C@@]3(C)[C@@H](CC[C@]4(C)[C@@H]3C=C[C@]35OC[C@@]6(CCC(C)(C)C[C@H]63)[C@@H](O)C[C@]54C)[C@]2(C)CO)[C@H](O)[C@@H](O[C@@H]2O[C@H](CO)[C@@H](O)[C@H](O)[C@H]2O)[C@H]1O	–	pair-fed control mice, no ethanol, plasma	oral, 15 mg/kg/day	–	total cholesterol	1.08 mM and 1.43 mM and 1.4 mM and 1.25 mM and 1.39 mM
CN1CC(Oc2cnc(C#N)cc2-c2ccn3nc(NC(=O)C4CC4)cc3c2)C1	–	Rag2-/- mouse, anti-CD40 colitis	dose not given, day 7	–	liver pathology	decreased
FC(F)(F)Oc1cccc(-c2ccnc3[nH]c(C(F)(F)F)nc23)c1	–	GAN diet MASH mice	300 mg/kg, 31 days	reference: GAN control	body weight	no effect
C[C@@H](O)CCOC(=O)C[C@@H](C)O	measured: C20-OH/C18-DC acylcarnitine	human, plasma	60 min, log2-transformed values	–	metabolite level	-6.73 ± 0.76 µmol/L
Cc1ccc([C@@H]2O[C@H](CO)[C@@H](O)[C@H](O)[C@H]2O)cc1Cc1ccc(-c2ccc(F)cc2)s1	–	Japanese type 2 diabetes patients	200 mg, day 2	reference: day 1	change in fasting serum insulin	-1.5 µU/mL
